Measured values of several laboratories.
Parts stem from different laboratories: compare values within a part only. Positions count from the first letter of the parent shown.

Study 1
Target: FOSL1, bZIP domain (human)
Technique: DHFR protein complementation
Matrix: yeast
Notes: single substitutions, most at no-binding floor
Baseline: wild-type JUN-FOS pair
Reading: higher = stronger binding
Measurement: binding fitness
Starting sequence: JUN, bZIP domain (human); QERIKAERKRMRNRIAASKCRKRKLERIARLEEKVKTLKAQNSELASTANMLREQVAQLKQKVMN; partner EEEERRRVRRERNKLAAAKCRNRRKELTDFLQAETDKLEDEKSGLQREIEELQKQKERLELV
T48L: -0.398 natural log
A40R: -0.401 natural log
S43G: -0.46 natural log
A57G: -0.592 natural log
A46N: -0.496 natural log
Q58R: -0.592 natural log
E33C: -0.716 natural log
E44Y: -0.808 natural log
L38M: -0.778 natural log
T48A: -0.451 natural log
E32P: -1.31 natural log
R30P: -0.802 natural log
A57K: -0.393 natural log
E32R: -0.266 natural log
S43P: -1.41 natural log
L52H: -1.49 natural log
A40W: -0.802 natural log
E54W: -0.891 natural log
A40F: -0.583 natural log
A40Y: -0.713 natural log

Study 2
Target: Sal-like protein 4, full length isoform A (SALL4, Homo sapiens, UniProt Q9UJQ4, residues 1-1053)
Chain of UniProt Q9UJQ4 (whole entry, looked up): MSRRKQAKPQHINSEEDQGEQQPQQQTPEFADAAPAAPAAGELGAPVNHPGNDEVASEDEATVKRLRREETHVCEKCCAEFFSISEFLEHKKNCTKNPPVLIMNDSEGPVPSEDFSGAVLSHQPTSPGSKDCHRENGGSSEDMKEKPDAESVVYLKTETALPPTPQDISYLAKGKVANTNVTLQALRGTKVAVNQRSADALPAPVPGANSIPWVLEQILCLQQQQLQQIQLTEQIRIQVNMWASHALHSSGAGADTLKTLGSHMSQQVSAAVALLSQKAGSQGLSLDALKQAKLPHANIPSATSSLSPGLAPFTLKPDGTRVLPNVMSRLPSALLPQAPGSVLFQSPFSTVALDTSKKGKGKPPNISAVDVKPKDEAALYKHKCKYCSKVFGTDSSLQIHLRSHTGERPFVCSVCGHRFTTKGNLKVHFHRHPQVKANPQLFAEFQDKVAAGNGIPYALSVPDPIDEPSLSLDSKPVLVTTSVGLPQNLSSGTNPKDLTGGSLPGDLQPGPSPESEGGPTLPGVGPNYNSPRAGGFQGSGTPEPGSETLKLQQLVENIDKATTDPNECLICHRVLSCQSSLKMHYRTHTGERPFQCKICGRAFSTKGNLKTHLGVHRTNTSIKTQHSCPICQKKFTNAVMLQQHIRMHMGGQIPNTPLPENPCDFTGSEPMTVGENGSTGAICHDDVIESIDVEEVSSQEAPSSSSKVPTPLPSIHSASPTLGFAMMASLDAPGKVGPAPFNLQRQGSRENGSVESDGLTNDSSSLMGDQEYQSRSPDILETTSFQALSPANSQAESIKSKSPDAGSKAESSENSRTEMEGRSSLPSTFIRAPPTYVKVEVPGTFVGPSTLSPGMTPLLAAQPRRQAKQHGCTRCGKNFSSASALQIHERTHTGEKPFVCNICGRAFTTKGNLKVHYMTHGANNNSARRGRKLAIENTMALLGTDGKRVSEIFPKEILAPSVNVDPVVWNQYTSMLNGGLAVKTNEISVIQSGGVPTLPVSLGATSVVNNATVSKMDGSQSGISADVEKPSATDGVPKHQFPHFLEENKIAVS
Technique: universal PBM
Form: double-stranded DNA, one strand shown
Matrix: in vitro
Tested at: 600 nM
Notes: 8-mer, flanks averaged, mean of replicates
Reading: higher = stronger binding
Measurement: E-score
TCACCTAA: -0.0118
AGTGGAAA: 0.041
GCCGACTA: -0.139
GGACTCGA: -0.142
CGATGAGA: 0.0492
CGACAAAG: 0.13
CGAATTGC: -0.0594
CCCCCGCG: -0.357
GCCATCAC: -0.103
AGGACGAT: 0.0614
GCCACCAC: -0.152
ATTCCTGA: 0.121
GGTCGATA: -0.011
CTCTCGGA: -0.14
CATTTGAG: 0.176
TATCGCAA: 0.151
CATCAACC: 0.0911
CGGAGCAC: -0.217
CCTGGTTC: -0.239
ACATCCGG: -0.11
CCACGGCA: -0.172
CTAACCAG: -0.113
ATACTTCA: 0.282
GAAAATAA: 0.354
CCCATTCA: -0.019

Study 3
Target: CCNF, cyclin fold, Cln2 fusion (human)
Technique: yeast growth competition, sequencing
Matrix: yeast
Notes: strong parent motif
Baseline: not given
Reading: higher = stronger binding
Measurement: normalised enrichment score
Starting sequence: REPIN1 docking peptide (human); QSFRGWVALVLHL; partner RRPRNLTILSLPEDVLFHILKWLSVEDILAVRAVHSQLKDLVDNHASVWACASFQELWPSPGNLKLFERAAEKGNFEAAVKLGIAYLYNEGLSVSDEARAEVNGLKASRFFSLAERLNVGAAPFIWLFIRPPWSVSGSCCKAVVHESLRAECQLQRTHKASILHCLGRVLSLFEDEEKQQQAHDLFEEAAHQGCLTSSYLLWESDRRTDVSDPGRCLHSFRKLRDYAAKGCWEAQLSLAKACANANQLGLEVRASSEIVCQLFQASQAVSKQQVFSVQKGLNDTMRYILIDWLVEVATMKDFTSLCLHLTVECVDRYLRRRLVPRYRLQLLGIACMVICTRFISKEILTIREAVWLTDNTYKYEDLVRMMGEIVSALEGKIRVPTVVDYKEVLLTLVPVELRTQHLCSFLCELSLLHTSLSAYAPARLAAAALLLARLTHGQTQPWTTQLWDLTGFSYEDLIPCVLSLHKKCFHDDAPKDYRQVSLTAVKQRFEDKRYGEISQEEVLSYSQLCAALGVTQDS
H12A: 2.12
V7A: 1.83
G5A: 2.72
L11A: 2.21
F3A: 1.75
Q1A: 2.06

Study 4
Target: ABI1, truncated, D143A, DHFR fusion (Arabidopsis thaliana)
Technique: DHFR PCA, deep sequencing
Matrix: yeast
Notes: methotrexate growth selection, single substitutions
With: (+)-ABA 200 µM
Baseline: wild-type fitted maximum
Reading: higher = stronger binding
Measurement: relative binding score
Starting sequence: PYL1, truncated, DHFR fusion (Arabidopsis thaliana); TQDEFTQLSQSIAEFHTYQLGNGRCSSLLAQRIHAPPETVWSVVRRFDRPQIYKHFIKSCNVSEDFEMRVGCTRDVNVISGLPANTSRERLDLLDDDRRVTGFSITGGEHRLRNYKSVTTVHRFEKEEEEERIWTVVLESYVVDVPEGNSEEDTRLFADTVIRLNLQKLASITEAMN; partner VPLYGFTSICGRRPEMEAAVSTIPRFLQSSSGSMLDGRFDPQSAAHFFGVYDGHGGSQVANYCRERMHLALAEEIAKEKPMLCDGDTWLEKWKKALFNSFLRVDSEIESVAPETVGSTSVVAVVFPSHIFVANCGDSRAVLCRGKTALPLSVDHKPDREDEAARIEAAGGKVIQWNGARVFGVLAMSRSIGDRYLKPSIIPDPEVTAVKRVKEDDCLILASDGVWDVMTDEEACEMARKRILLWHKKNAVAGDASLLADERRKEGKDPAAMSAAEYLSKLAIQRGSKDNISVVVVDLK
N165P: 1.25%
D95V: 52.8%
S9Q: 97.7%
A84T: 31.3%
F56Q: 27.1%
D75R: 99.6%
V137I: 89.6%
V70D: 71.2%
D96E: 108%
H34V: 94.3%
S59G: 95.7%
S27K: 67.9%
K126Q: 104%
L156H: 91%

Study 5
Target: Interferon regulatory factor 7, full length, phosphomimetic (IRF7, Homo sapiens, UniProt Q92985, residues 1-503, S101K/S471D/S472D/S475D/S476D/S477D/S483D/S484D/S487D)
Technique: protein-binding microarray
Form: double-stranded DNA, one strand shown
Matrix: in vitro
Tested at: 250 nM
Notes: 60-bp whole probe
With: salmon DNA 0.4 mg/ml
Baseline: random background probes
Reading: higher = stronger binding
Measurement: log fluorescence
Constant ends, left off below: GCCTAGCAC … GTCTTGATTCGCTTGACGCTGCTG
Construct (chain): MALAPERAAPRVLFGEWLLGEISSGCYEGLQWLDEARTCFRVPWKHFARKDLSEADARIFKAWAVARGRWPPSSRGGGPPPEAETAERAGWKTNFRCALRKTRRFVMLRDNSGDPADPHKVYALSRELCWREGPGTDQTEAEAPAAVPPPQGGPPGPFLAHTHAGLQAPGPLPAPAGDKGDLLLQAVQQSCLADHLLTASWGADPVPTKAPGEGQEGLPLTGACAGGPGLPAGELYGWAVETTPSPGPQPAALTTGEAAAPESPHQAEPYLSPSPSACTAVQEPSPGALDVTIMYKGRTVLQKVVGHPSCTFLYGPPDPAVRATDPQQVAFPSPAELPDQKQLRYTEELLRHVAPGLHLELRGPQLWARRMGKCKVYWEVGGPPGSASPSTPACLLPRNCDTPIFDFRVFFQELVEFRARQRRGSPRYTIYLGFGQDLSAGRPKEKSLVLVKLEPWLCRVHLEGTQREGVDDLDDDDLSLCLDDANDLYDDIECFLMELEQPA
GAGCCTCTGTTTTGAGCACAGTGCTAG: 0.489 z-score
GACGATTTCATTTCCGAGACGTGCTAG: 0.822 z-score
GACGGTTTCGGACTGGGGAAGTGCTAG: 4.64 z-score
GTCGGTATCGACTATCGGGACGTGCTA: 0.0381 z-score
TCCATTTTGTGTTTTCATTTGTGCTAG: 1.91 z-score
GACGGACTGCACTTTCGGGACGTGCTA: -0.138 z-score
TTAGATTTCAGTATCGATAAGTGCTAG: 0.613 z-score
TTAGGTTTCCTTCACCTTTAGTGCTAG: 0.583 z-score
AACGATATCGGGACTGGAGACGTGCTA: -0.238 z-score
TTTTTTTTTTTTTTTTTGGAGTGCTAG: 0.674 z-score
GACGGTCTGGGTCTCGGGACGTGCTAG: -0.207 z-score
GATGGTATCGGGACTGGGGACGTGCTA: -0.277 z-score
TTAGGACTGCTTTTCTTTTAGTGCTAG: 1.29 z-score
GACGAACTGAGACTGTAGACGTGCTAG: 0.0311 z-score
TTAGGATTCCTTTCCCTTTAGTGCTAG: 1.86 z-score
TTATGTCTCCTACTGCTTTAGTGCTAG: 0.349 z-score

Study 6
Target: RING finger protein unkempt homolog, zinc fingers 1-6, GST-SBP tag (UNK, Homo sapiens, UniProt Q9C0B0, residues 30-357)
Chain of UniProt Q9C0B0 (30-357, looked up): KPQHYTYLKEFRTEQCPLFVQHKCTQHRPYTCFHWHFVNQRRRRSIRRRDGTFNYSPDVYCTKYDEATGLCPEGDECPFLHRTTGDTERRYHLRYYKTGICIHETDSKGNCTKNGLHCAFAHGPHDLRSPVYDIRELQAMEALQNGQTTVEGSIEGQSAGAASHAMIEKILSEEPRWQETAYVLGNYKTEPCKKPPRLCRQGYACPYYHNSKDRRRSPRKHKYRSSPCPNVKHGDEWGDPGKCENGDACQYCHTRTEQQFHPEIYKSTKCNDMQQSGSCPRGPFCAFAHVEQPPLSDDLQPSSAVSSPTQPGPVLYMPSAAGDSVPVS
Technique: RNA Bind-n-Seq
Form: RNA
Matrix: in vitro
Tested at: not given
Notes: RNA with constant flanks, human and mouse sites, ends assumed
Baseline: input RNA pool
Reading: higher = stronger binding
Measurement: bound/input enrichment
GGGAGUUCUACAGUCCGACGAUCACAGUAGGAAAGGCCAAGGGCAAAUUGUGGCUCUUUGGAAAGAAGCCAAAGGGCCCAGCACUAGAAGAUUUCAGUCAUCUGCCACCAGAACAGAGACGUAAAAAACUACAGCAGCGCAUUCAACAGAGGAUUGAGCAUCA: 0.673 ratio
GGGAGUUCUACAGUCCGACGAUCCUGCUCAGGCUGAGAGCUCAGACAAAACAGCAGCUCUUAGAAUAUAAGUCCAUGAUCGACACAAAUGAAGAAAAAACUCCAGAACAGAUUAUGCAAGAAAAACAGAUCGAAGUUAAAAUUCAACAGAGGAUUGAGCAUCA: 0.946 ratio
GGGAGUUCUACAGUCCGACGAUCGUUGAGCCCAGUCCCUCCCCAAUCAAGCCUGGAGACAUCAAAAGAGGAAUUCCUAAUUACGAAUUUAAGCUUGGUAAGAUCACUUUCAUCAGAAAUUCACGUCCAUUGGUCAAAAAGGUUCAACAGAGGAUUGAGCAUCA: 0.346 ratio
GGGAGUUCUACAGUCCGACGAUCUAUUUGUGUAAAGUAUGCAUGCAGUCUUGUACUGUGACCUAAGAACAAAACUGUAACUGCAUUAGAAACCAUGAAAAAAUUAGAUAUUGUUUUGUGACUUUUAGACAGUGGUAAAUAUAGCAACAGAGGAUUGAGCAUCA: 5.34 ratio
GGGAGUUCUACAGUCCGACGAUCCAACAAAAGAUAAACAAAUUUGCACGGAAUACAAGUAGAAUCACAGAGCUGAAGGAAGAAAUAGAAGUAAAAAAGAAACAACUCCAAAACCUAGAAGAUGCUUGUGAUGACAUCAUGCUUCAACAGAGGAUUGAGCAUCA: 1.53 ratio
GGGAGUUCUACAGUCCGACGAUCCCAGUAACUUCUACAGCACCUCCCAUUGUGAGCGGAGUCAGCAGCAGUGCCAGUGGACCAAGCACUGCUAAUUACAGCUCCUUUUCCAGUGCAUCAAUGCCGCAGAUCCCAGUUGCGUCACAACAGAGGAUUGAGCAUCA: 0.164 ratio
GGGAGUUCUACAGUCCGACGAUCGGUCAUGACCUGCGCAUACGCUCCUUCUGGGAAUUAUGUGGCCUGUGGUGGCCUGGAUAACAUCUGCUCCAUUUACAACCUGAAAACUCGUGAAGGGAAUGUGCGUGUGAGUCGUGAGCUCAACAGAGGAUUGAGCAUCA: 0.204 ratio
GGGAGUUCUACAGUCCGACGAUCCCUGCUACAGUUUUUAUGCUCUUUAGUGGCCAAGGAAGUUUGCUCCAGCCUUUUAUAUAUUAUAGAUUUCUUACUCUUCGAUAUUCCUCUAGAAGAAAUCCAUAUUGUCGGAACUUGUUUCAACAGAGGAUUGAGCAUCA: 5.01 ratio
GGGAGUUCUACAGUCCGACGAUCCAGCUCUCCCGGGGGGACUCUGGGACCCGGGACACUGUUCUCAAGCUGCUACUGAAUGGAGCCCGCCAUCUGGGUUAUACCCUUUGUAAACAAAUAGGUACCCUGCUGGCCGAGCUGCGGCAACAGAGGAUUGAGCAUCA: 0.281 ratio
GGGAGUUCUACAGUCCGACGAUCGAAUAUAUGAUGGACACCGUAAUUUCCCUUUUGACUGGUUUGUCAGACUCCCAAGUCAGAGCUUUUAGGCAUACAAGUACCCUUGCUGCAAUGAAGCUGAUGACUGCUCUGGUGAAUGUUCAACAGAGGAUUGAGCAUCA: 0.613 ratio
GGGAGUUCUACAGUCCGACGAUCAUUUGCUUUUAUUAUUAUUAUUAUUAUUAUUUUAGACACAGUCUUGCUCUGUCACCCAGGCUGGAGUGCGGUGGUAUUAUCUCGGCUCACUGCAACCUCCACCUCUCGGGUUCAAGCAAUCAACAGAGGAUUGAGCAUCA: 55.2 ratio

Single results of other studies
PhoQ, residues 284 288 289 292 302 303 GANMMA  fold induction (PhoP, residues 12 14 15 18 19 LHSVW (Escherichia coli, UniProt P23836); Sort-seq, item: YFP reporter; E. coli; PhoQ-PhoP variant library, with: 10 µM Mg2+; baseline: high Mg2+ state, higher = stronger signaling): 7.35

A few entries again (study 3):
Q1A: 2.06
L11A: 2.21
G5A: 2.72
F3A: 1.75
H12A: 2.12
V7A: 1.83
